Measurements pooled from the literature.
Each numbered part is a random draw from the data of one study; scales do not carry over between parts. Positions count from the first letter of the parent shown.

Set 1 — target: CREB3L1, bZIP domain (human); technique: DHFR protein complementation; sample: yeast; baseline: wild-type JUN-FOS pair; reading: higher = stronger binding
Setting: single substitutions, most at no-binding floor
Starting sequence: JUN, bZIP domain (human); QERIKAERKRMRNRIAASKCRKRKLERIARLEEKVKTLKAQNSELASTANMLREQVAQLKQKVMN; partner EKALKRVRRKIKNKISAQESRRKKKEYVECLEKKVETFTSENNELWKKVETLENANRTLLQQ
Variant | binding fitness
A49C | -1.45 natural log
V56F | -1.52 natural log
A57M | -1.47 natural log
L31T | -1.26 natural log
T48D | -1.49 natural log
V56R | -1.41 natural log
S43C | -1.51 natural log
V56Y | -1.5 natural log
V35G | -1.48 natural log
K36M | -1.25 natural log
K34L | -1.29 natural log
Q55M | -1.14 natural log
K34P | -1.52 natural log
L45G | -1.51 natural log
A29V | -1.37 natural log
M51L | -1.35 natural log
Q55G | -1.43 natural log
T37K | -1.43 natural log

Set 2 — technique: protein binding microarray; molecule type: double-stranded DNA, one strand shown; sample: in vitro; concentration: not given; baseline: not given; reading: higher = stronger binding
Target: Histone acetyltransferase KAT6A, both winged helices, GST fusion (KAT6A, Homo sapiens, UniProt Q92794, residues 1-181)
Setting: 8-mer, flanks averaged, mean of 2 arrays, mostly near background
Target sequence (chain): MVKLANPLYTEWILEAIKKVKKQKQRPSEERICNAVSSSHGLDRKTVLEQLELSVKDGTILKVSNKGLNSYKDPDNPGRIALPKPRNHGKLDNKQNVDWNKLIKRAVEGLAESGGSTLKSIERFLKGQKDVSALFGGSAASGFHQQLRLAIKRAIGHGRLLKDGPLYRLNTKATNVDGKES
Oligonucleotide | E-score
AGACATAT | -0.0147
GACAGAAA | -0.0997
ACCACACA | -0.0926
GCGCTTTA | 0.221
TCCATGCA | -0.0169
ACAGTGCT | 0.0235
CCTGAACA | -0.0553
GACTTTGC | 0.0779
GCGGTTAA | 0.21
AAGGATGC | -0.16
AGTGCATG | -0.0976
AGGTGGGA | -0.226
GGCTTAGA | -0.0715
ACGGCTTC | 0.266
TAAAAACA | 0.0821
CGATGAGA | -0.0794
GTGGCGGA | 0.075
GGCCAACC | -0.0459
AGTGAGTA | -0.0614
CCCCGAAC | 0.0315
GCAGCCAA | -0.102
AGAACTGG | -0.148
ATATGTGA | -0.13
CTATATCA | -0.011
ATACTAGG | -0.163

Set 3 — target: CCNA1, cyclin fold, Cln2 fusion (human); technique: yeast growth competition, sequencing; sample: yeast; setting: weak parent motif; baseline: not given; reading: higher = stronger binding
Starting sequence: E2F1 docking peptide (human); PPVKRRLDLETDH; partner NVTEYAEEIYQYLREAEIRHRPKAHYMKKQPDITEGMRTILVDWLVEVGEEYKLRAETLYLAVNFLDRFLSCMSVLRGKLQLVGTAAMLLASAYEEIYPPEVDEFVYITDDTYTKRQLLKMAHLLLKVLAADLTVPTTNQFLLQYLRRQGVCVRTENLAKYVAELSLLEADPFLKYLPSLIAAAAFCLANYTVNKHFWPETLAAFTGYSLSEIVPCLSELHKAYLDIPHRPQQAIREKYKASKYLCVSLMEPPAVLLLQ
Variant | normalised enrichment score
PPVVRRLDLETDH [K4V] | 0.572
PPVKRRLDLEHDH [T11H] | 0.141
PRVKRRLDLETDH [P2R] | 0.365
PPVKRRMDLETDH [L7M] | 0.451
PPNKRRLDLETDH [V3N] | 0.402
PPVWRRLDLETDH [K4W] | 0.194
RPVKRRLDLETDH [P1R] | 0.0907
PSVKRRLDLETDH [P2S] | 0.24
PPVKRRLDLEVDH [T11V] | 0.373
PPVKRALDLETDH [R6A] | -0.0342
PPVKRRQDLETDH [L7Q] | 0.241
PPVKTRLDLETDH [R5T] | 0.43
PPVKRRLDLETVH [D12V] | 0.609
PPVKRILDLETDH [R6I] | 0.136
PPVPRRLDLETDH [K4P] | 0.219
PPVGRRLDLETDH [K4G] | 0.239
PPVKRRLDLGTDH [E10G] | 0.505
HPVKRRLDLETDH [P1H] | 0.664
PPVKSRLDLETDH [R5S] | -0.045
PPVKRRLDLETDD [H13D] | 0.251
FPVKRRLDLETDH [P1F] | 0.77
PPVKMRLDLETDH [R5M] | 0.16
PPVKRYLDLETDH [R6Y] | 0.389

Other studies, line by line
Substance | target | test | test system | conditions | scale | endpoint | value
PhoQ, residues 284 288 289 292 302 303 GNNTDL | PhoP, residues 12 14 15 18 19 SYFRT (Escherichia coli, UniProt P23836) | Sort-seq, measured: YFP reporter | E. coli | PhoQ-PhoP variant library, together with: 10 µM Mg2+ | baseline: high Mg2+ state, higher = stronger signaling | fold induction | 7.98

A few entries again (set 2):
Oligonucleotide | E-score
ACCACACA | -0.0926
GCGCTTTA | 0.221
TCCATGCA | -0.0169
ACAGTGCT | 0.0235
